# Published values of several laboratories.
# Chains of the proteins cited; added tags and fusions are not shown. A line that says so, or that is headed by a name, gives the form on record, which may keep a tag or linker. Residues count along the entry.
# UniProt P08510, 1-655 with tags or gaps DEL6-46: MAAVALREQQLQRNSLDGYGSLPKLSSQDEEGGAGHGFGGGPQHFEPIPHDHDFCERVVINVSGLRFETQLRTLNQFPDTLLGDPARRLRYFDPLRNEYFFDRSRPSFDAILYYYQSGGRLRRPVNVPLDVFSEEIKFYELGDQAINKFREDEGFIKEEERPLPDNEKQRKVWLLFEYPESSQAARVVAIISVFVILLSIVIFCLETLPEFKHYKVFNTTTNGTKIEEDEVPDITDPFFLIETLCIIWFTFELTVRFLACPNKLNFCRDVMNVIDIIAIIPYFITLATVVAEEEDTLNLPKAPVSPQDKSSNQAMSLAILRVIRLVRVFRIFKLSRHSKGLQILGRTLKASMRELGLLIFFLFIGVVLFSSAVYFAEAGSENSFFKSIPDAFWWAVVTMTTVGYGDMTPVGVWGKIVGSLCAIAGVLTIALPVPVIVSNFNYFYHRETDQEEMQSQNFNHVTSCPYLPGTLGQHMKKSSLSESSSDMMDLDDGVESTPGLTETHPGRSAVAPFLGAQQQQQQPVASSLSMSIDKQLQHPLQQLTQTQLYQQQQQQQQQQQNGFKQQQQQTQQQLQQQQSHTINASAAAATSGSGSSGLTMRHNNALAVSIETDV
# UniProt Q9JKC1, 24-597 limits assumed: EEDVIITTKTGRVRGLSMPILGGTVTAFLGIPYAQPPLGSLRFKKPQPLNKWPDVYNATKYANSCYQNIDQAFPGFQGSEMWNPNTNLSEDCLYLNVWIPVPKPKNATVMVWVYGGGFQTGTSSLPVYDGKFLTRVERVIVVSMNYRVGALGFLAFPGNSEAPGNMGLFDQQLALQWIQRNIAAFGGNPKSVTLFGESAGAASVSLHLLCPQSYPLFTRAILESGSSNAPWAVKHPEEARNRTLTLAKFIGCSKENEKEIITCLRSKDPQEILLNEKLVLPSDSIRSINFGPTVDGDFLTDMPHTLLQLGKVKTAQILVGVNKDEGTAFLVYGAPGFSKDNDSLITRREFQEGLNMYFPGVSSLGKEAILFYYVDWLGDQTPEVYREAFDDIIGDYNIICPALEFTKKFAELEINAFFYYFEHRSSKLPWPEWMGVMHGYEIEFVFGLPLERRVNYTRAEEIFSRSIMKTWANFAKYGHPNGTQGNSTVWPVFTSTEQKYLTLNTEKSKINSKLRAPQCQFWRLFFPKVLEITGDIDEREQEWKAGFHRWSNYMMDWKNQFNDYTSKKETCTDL
# Values joined by “and” are separate records of one study, mostly repeats; a detail may differ. ± marks the error that the study gave.
SMILES,tested on,assay,system,conditions,how to read,endpoint,result
CC[C@H](C)[C@H](NC(=O)[C@H](C)NC(=O)[C@H](CCC(=O)O)NC(=O)[C@H](CCC(=O)O)NC(=O)[C@H](CC(C)C)NC(=O)[C@H](CCCCN)NC(=O)[C@H](CCCCN)NC(=O)[C@H](CCSC)NC(=O)[C@H](CCC(=O)O)NC(=O)[C@H](Cc1ccc(O)cc1)NC(=O)[C@H](CCC(=O)O)NC(=O)[C@H](CC(C)C)NC(=O)[C@H](CC(=O)O)NC(=O)[C@H](CC(C)C)NC(=O)[C@H](Cc1ccccc1)NC(=O)[C@@H](NC(=O)[C@@H](NC(=O)[C@H](CC(N)=O)NC(=O)[C@@H](NC(=O)[C@H](CCC(N)=O)NC(=O)[C@H](CC(=O)O)NC(=O)[C@H](CC(C)C)NC(=O)[C@@H](N)CO)[C@@H](C)CC)C(C)C)[C@@H](C)O)C(=O)N[C@@H](CCCCN)C(=O)N[C@@H](CCCCN)C(=O)N[C@@H](CC(C)C)C(=O)N[C@@H](CCC(=O)O)C(=O)N[C@@H](CCC(=O)O)C(=O)N[C@@H](CO)C(=O)N[C@@H](Cc1ccc(O)cc1)C(=O)N[C@H](C(=O)N[C@@H](CC(=O)O)C(=O)N[C@@H](CC(C)C)C(=O)N[C@@H](CCCCN)C(=O)N[C@@H](CCC(=O)O)C(=O)N[C@@H](CC(C)C)C(=O)O)[C@@H](C)CC,SARS-CoV-2 Beta pseudovirus,"pseudovirus infection, inhibitor, luciferase",Caco-2,"24 h, dual mutations",,IC50,1000 nM
Nc1ccc([As]=O)cc1 (centres unmarked),RKO,"cell viability, MTS",,,,IC50,2990 ± 40 nM
O=C(CSc1ccccc1)N1CCCC2(C1)Nc1cccnc1N=C2NC1CCCC1 (centres unmarked),HepG2,"cell viability, CellTiter-Glo",,72 h,,CC50,> 70000 nM
Cc1ccc(S(=O)(=O)Nc2cccc(C(=O)NC3CCN(c4ncnc5[nH]cnc45)CC3)c2)cc1,monkeypox virus E1/E12,,,12.5 µM,,inhibition,2.55% and 9.87%
CC(=O)Oc1ccc(CON2C(=O)CCC2=O)cc1,"hiPSC-derived neurons, human",SNAP-25 cleavage protection,,with: botulinum neurotoxin A,,EC50,4900 nM
CC[C@H](C)[C@H](NC(=O)[C@H](C)NC(=O)[C@H](CCC(=O)O)NC(=O)[C@H](CCC(=O)O)NC(=O)[C@H](CC(C)C)NC(=O)[C@H](CCCCN)NC(=O)[C@H](CCCCN)NC(=O)[C@H](CCSC)NC(=O)[C@H](CCC(=O)O)NC(=O)[C@H](Cc1ccc(O)cc1)NC(=O)[C@H](CCC(=O)O)NC(=O)[C@H](CC(C)C)NC(=O)[C@H](CC(=O)O)NC(=O)[C@H](CC(C)C)NC(=O)[C@H](Cc1ccccc1)NC(=O)[C@H](Cc1ccc(O)cc1)NC(=O)[C@@H](NC(=O)[C@H](CC(N)=O)NC(=O)[C@@H](NC(=O)[C@H](CCC(N)=O)NC(=O)[C@H](CC(=O)O)NC(=O)[C@H](CC(C)C)NC(=O)[C@@H](N)CO)[C@@H](C)CC)C(C)C)C(=O)N[C@@H](CCCCN)C(=O)N[C@@H](CCCCN)C(=O)N[C@@H](CC(C)C)C(=O)N[C@@H](CCC(=O)O)C(=O)N[C@@H](CCC(=O)O)C(=O)N[C@H](C(=O)N[C@@H](Cc1ccc(O)cc1)C(=O)N[C@H](C(=O)N[C@@H](CC(=O)O)C(=O)N[C@@H](CC(C)C)C(=O)N[C@@H](CCCCN)C(=O)N[C@@H](CCC(=O)O)C(=O)N[C@@H](CC(C)C)C(=O)O)[C@@H](C)CC)[C@@H](C)O,SARS-CoV-2 Alpha pseudovirus,"pseudovirus infection, inhibitor, luciferase",Caco-2,"24 h, dual mutations",,IC50,617 nM
O=C(NC1CCN(c2ncnc3[nH]cnc23)CC1)c1cccc(NS(=O)(=O)c2ccc([N+](=O)[O-])cc2)c1,SARS-CoV-2,,Wuhan-Hu-1,2.469 µM,relative to: untreated infected cells,relative infection,36.5%
CC[C@H](C)[C@H](NC(=O)[C@H](C)NC(=O)[C@H](CCC(=O)O)NC(=O)[C@H](CCC(=O)O)NC(=O)[C@H](CC(C)C)NC(=O)[C@H](CCCCN)NC(=O)[C@H](CCCCN)NC(=O)[C@H](CCSC)NC(=O)[C@H](CCC(=O)O)NC(=O)[C@H](Cc1ccc(O)cc1)NC(=O)[C@H](CCC(=O)O)NC(=O)[C@H](CC(C)C)NC(=O)[C@H](CC(=O)O)NC(=O)[C@H](CC(C)C)NC(=O)[C@H](Cc1ccccc1)NC(=O)[C@@H](NC(=O)[C@@H](NC(=O)[C@H](CC(N)=O)NC(=O)[C@@H](NC(=O)[C@H](CCC(N)=O)NC(=O)[C@H](CC(=O)O)NC(=O)[C@H](CC(C)C)NC(=O)[C@H](CO)NC(=O)[C@H](CC(C)C)NC(=O)[C@H](CC(=O)O)NC(=O)[C@@H]1CCCN1C(=O)[C@H](C)N)[C@@H](C)CC)C(C)C)[C@@H](C)O)C(=O)N[C@@H](CCCCN)C(=O)N[C@@H](CCCCN)C(=O)N[C@@H](CC(C)C)C(=O)N[C@@H](CCC(=O)O)C(=O)N[C@@H](CCC(=O)O)C(=O)N[C@@H](CO)C(=O)N[C@@H](Cc1ccc(O)cc1)C(=O)N[C@H](C(=O)N[C@@H](CC(=O)O)C(=O)N[C@@H](CC(C)C)C(=O)N[C@@H](CCCCN)C(=O)N[C@@H](CCC(=O)O)C(=O)N[C@@H](CC(C)C)C(=O)O)[C@@H](C)CC,SARS-CoV-2 Beta pseudovirus,"pseudovirus infection, inhibitor, luciferase",Caco-2,24 h,,IC50,420 nM
Cc1ccc(S(=O)(=O)Nc2cccc(C(=O)NC3CCN(c4ncnc5[nH]cnc45)CC3)c2)cc1Cl,SARS-CoV-2,,Wuhan-Hu-1,22.22 µM,relative to: untreated infected cells,relative infection,28%
NCc1ccc(-c2ncc(OCC3CCNCC3)nc2-c2ccc(-c3ccoc3)cc2)cc1,Zika virus,,"ZIKV-FLR, C57BL/6 mice, interferon receptor knockout","30 mg/kg/day, 3 days, mean survival",,survival time,15.1 days
O=C(Nc1cc(F)cc(F)c1)N1CCCC2(C1)Nc1cccnc1N=C2NC1CCCC1 (centres unmarked),HepG2,"cell viability, CellTiter-Glo",,72 h,,CC50,> 70000 nM
CCN(CC)Cc1onc(-c2cccc(Cl)c2)c1-c1ccnc(N[C@@H]2CCN(C(=O)c3ccn(C)n3)C2)n1,Plasmodium falciparum,parasite growth,3D7 A10,"72 h, asexual blood stage",,EC50,4790 ± 210 nM
CC[C@H](C)[C@H](NC(=O)[C@H](C)NC(=O)[C@H](CCC(=O)O)NC(=O)[C@H](CCC(=O)O)NC(=O)[C@H](CC(C)C)NC(=O)[C@H](CCCCN)NC(=O)[C@H](CCCCN)NC(=O)[C@H](CCSC)NC(=O)[C@H](CCC(=O)O)NC(=O)[C@H](Cc1ccc(O)cc1)NC(=O)[C@H](CCC(=O)O)NC(=O)[C@H](CC(C)C)NC(=O)[C@H](CC(=O)O)NC(=O)[C@H](CC(C)C)NC(=O)[C@H](Cc1ccccc1)NC(=O)[C@H](Cc1ccccc1)NC(=O)[C@@H](NC(=O)[C@H](CC(N)=O)NC(=O)[C@@H](NC(=O)[C@H](CCC(N)=O)NC(=O)[C@H](CC(=O)O)NC(=O)[C@H](CC(C)C)NC(=O)[C@@H](N)CO)[C@@H](C)CC)C(C)C)C(=O)N[C@@H](CCCCN)C(=O)N[C@@H](CCCCN)C(=O)N[C@@H](CC(C)C)C(=O)N[C@@H](CCC(=O)O)C(=O)N[C@@H](CCC(=O)O)C(=O)N[C@H](C(=O)N[C@@H](Cc1ccc(O)cc1)C(=O)N[C@H](C(=O)N[C@@H](CC(=O)O)C(=O)N[C@@H](CC(C)C)C(=O)N[C@@H](CCCCN)C(=O)N[C@@H](CCC(=O)O)C(=O)N[C@@H](CC(C)C)C(=O)O)[C@@H](C)CC)[C@@H](C)O,SARS-CoV-2 Delta pseudovirus,"pseudovirus infection, inhibitor, luciferase",Caco-2,"24 h, dual mutations",,IC50,1120 nM
Cc1cc(C(=O)N[C@@H](Cc2cccc3ccccc23)C(=O)N[C@@H](CC(C)C)C(=O)N[C@H](C=O)C[C@@H]2CCCNC2=O)no1,Enterovirus A71,"viral replication, RT-qPCR",RD,three days,,EC50,10 ± 10 nM
c1ccc2c(NC3CCNCC3)nc(NCc3ccc(CNCCCNC4CCCCC4)cc3)nc2c1,TZM-bl,,,,relative to: CC50 over anti-HIV EC50,selectivity index,> 731
CC[C@H](C)[C@H](NC(=O)[C@H](C)NC(=O)[C@H](CCC(=O)O)NC(=O)[C@H](CCC(=O)O)NC(=O)[C@H](CC(C)C)NC(=O)[C@H](CCCCN)NC(=O)[C@H](CCCCN)NC(=O)[C@H](CCSC)NC(=O)[C@H](CCC(=O)O)NC(=O)[C@H](Cc1ccc(O)cc1)NC(=O)[C@H](CCC(=O)O)NC(=O)[C@H](CC(C)C)NC(=O)[C@H](CC(=O)O)NC(=O)[C@H](CC(C)C)NC(=O)[C@H](Cc1ccccc1)NC(=O)[C@H](Cc1ccc(O)cc1)NC(=O)[C@@H](NC(=O)[C@H](CC(N)=O)NC(=O)[C@@H](NC(=O)[C@H](CCC(N)=O)NC(=O)[C@H](CC(=O)O)NC(=O)[C@H](CC(C)C)NC(=O)[C@@H](N)CO)[C@@H](C)CC)C(C)C)C(=O)N[C@@H](CCCCN)C(=O)N[C@@H](CCCCN)C(=O)N[C@@H](CC(C)C)C(=O)N[C@@H](CCC(=O)O)C(=O)N[C@@H](CCC(=O)O)C(=O)N[C@@H](C)C(=O)N[C@@H](Cc1ccc(O)cc1)C(=O)N[C@H](C(=O)N[C@@H](CC(=O)O)C(=O)N[C@@H](CC(C)C)C(=O)N[C@@H](CCCCN)C(=O)N[C@@H](CCC(=O)O)C(=O)N[C@@H](CC(C)C)C(=O)O)[C@@H](C)CC,SARS-CoV-2 Delta pseudovirus,"pseudovirus infection, inhibitor, luciferase",Caco-2,"24 h, dual mutations",,IC50,641 nM
CC[C@H](C)[C@@H]1NC(=O)[C@H](CCCNC(=N)N)NC(=O)[C@@H](N)CSSC[C@@H]2NC(=O)[C@@H]3CSSC[C@@H](C(=O)N[C@H](C(=O)O)C(C)C)NC(=O)[C@H](CCCCN)NC(=O)[C@H](CC(N)=O)NC(=O)[C@H](Cc4ccccc4)NC(=O)[C@H](CCCNC(=N)N)NC(=O)[C@H](CC(N)=O)NC(=O)[C@H](CSSC[C@H](NC(=O)[C@H](CCCCN)NC(=O)[C@H](CCC(N)=O)NC(=O)[C@H](CC(N)=O)NC(=O)[C@@H]4C[C@@H](O)CN4C1=O)C(=O)N[C@@H](Cc1ccccc1)C(=O)N[C@@H](CCC(N)=O)C(=O)N[C@@H](Cc1c[nH]cn1)C(=O)N[C@@H](CC(C)C)C(=O)N[C@@H](CC(=O)O)C(=O)N[C@@H](CC(=O)O)C(=O)N3)NC(=O)[C@H](CCCCN)NC(=O)[C@H](CCCNC(=N)N)NC(=O)[C@H](CO)NC2=O,"Sh (Drosophila melanogaster, UniProt P08510, del6-46)","potassium current, two-electrode voltage clamp",Xenopus oocytes,zero voltage,,koff,17 ± 1 s⁻¹
CCOP(=O)(OCC)ON1C(=O)c2cccc3cccc(c23)C1=O,"Butyrylcholinesterase (Bche, Rattus norvegicus, UniProt Q9JKC1)",inhibitor,"rat, postnatal day 1, rat serum",,,IC50,5 nM
O=C(NC1CCN(c2ncnc3[nH]cnc23)CC1)c1cccc(NS(=O)(=O)c2ccc(Cl)cc2)c1,SARS-CoV-2,,Wuhan-Hu-1,2.469 µM,relative to: untreated infected cells,relative infection,43.5%
CC(C)[C@H]1CC[C@@H](N2CCC3(CC2)C(=O)NCN3c2ccccc2)CC1,,"twitch contraction, electrical stimulation","NOP(-/-) mice, mouse vas deferens",,,Emax,98 ± 1 % inhibition

# Some of these lines once more:
SMILES,tested on,assay,system,conditions,how to read,endpoint,result
O=C(Nc1cc(F)cc(F)c1)N1CCCC2(C1)Nc1cccnc1N=C2NC1CCCC1 (centres unmarked),HepG2,"cell viability, CellTiter-Glo",,72 h,,CC50,> 70000 nM
CCN(CC)Cc1onc(-c2cccc(Cl)c2)c1-c1ccnc(N[C@@H]2CCN(C(=O)c3ccn(C)n3)C2)n1,Plasmodium falciparum,parasite growth,3D7 A10,"72 h, asexual blood stage",,EC50,4790 ± 210 nM
